Measurements gathered from unrelated publications.
Protocols differ between the studies behind these lines. Numbers after ± are the reported error.

Substance	cell line	test	setting	IC50
CC(=O)NCCCCCC(=O)N[C@@H](CCCNC(=N)N)C(=O)N[C@@H](Cc1c[nH]c2ccccc12)C(=O)N[C@@H](CCC(N)=O)C(=O)N[C@@H](Cc1c[nH]c2ccccc12)C(=O)N[C@@H](CCCNC(=N)N)C(=O)N[C@@H](Cc1c[nH]c2ccccc12)C(=O)N[C@@H](CCC(N)=O)C(=O)N[C@@H](Cc1c[nH]c2ccccc12)C(=O)N[C@@H](CCCNC(=N)N)C(N)=O	Caco-2	cell growth or viability, MTT	–	31 µM
CN(C)c1cc2c(Nc3ccc4c(cnn4Cc4ccccc4)c3)ncnc2cn1	H3255 (EGFR L858R)	cell viability, Alamar Blue	120 h	0.67 ± 0.1 µM
Cc1ccc(S(=O)(=O)N[C@@H](Cc2ccccc2)C(=O)CCl)cc1	HEK293 expressing MOR	cAMP overshoot, inhibitor, HTRF cAMP	together with: morphine then naloxone	18.4 µM
C#CC[C@H](NC(=O)CNC(=O)CNC(=O)[C@H](Cc1ccc(O)cc1)NC(=O)[C@H](CCCNC(=N)N)NC(=O)[C@H](CCC(N)=O)NC(=O)[C@@H]1CCCN1C(=O)[C@H](CCC(N)=O)NC(=O)[C@H](Cc1ccc(O)cc1)NC(=O)[C@@H](NC(=O)[C@H](CCCNC(=N)N)NC(=O)[C@@H]1CCCN1C(=O)[C@H](CCCNC(=N)N)NC(=O)[C@H](CC(C)C)NC(=O)[C@H](CC(N)=O)NC(=O)[C@H](Cc1ccc(O)cc1)NC(=O)CNC(=O)CN)[C@@H](C)O)C(N)=O	A2780cisR	cell growth or viability, MTT	72 h, drug-resistant strain	> 200 µM
COc1ccc(NC(=O)Cn2cnc3ccccc3c2=O)c(N)c1	MDA-MB-231	cell growth or viability, crystal violet	48 h	> 100 µM
COc1ccc(C[C@H]2NC(=O)/C=C/C[C@@H]([C@H](C)[C@@H](OC(=O)CNC(=O)OCc3ccc(NC(=O)[C@H](C)NC(=O)[C@@H](NC(=O)CCc4cn(CCOCCOCCOCCOCC(=O)NCc5ccc(CN6C(=O)[C@H]7CC(=O)N[C@H](C(=O)O)CC(=O)NCC(=O)N[C@@H](CCCNC(=N)N)C(=O)NC[C@H]6C(=O)N7)cc5)nn4)C(C)C)cc3)[C@@H](Cl)c3ccccc3)OC(=O)[C@H](CC(C)C)OC(=O)C(C)(C)CNC2=O)cc1Cl	M21-L human melanoma (integrin αv-negative)	cell viability, MTT	2 h treatment plus 70 h	0.0326 ± 0.003 µM
O=C1C[C@@H](c2ccc(O)cc2)Oc2cc(O)ccc21	SK-BR-3 breast cancer	cell growth	–	155 ± 7.4 µM
CC(C)[C@@H]1NC(=O)[C@H](C)OC(=O)[C@@H](C(C)C)NC(=O)[C@@H](C(C)C)OC(=O)[C@H](C(C)C)NC(=O)[C@H](C)OC(=O)[C@@H](C(C)C)NC(=O)[C@@H](C(C)C)OC(=O)[C@H](C(C)C)NC(=O)[C@H](C)OC(=O)[C@@H](C(C)C)NC(=O)[C@@H](C(C)C)OC1=O	U-251	cell growth or viability, SRB	–	0.0076 µM
COc1ccc(C[C@H]2NC(=O)/C=C/C[C@@H]([C@H](C)[C@@H](OC(=O)CN)[C@@H](Cl)c3ccccc3)OC(=O)[C@H](CC(C)C)OC(=O)C(C)(C)CNC2=O)cc1Cl	M21	cytotoxicity, resazurin	2 h plus 70 h incubation, with β-glucuronidase 2 U/well	0.00422 ± 0.00044 µM
N.N.[Cl][Pt][Cl]	CCD-18Co colon fibroblasts	cell viability, MTS	24 h	83 ± 1.1 µM
N.N.[Cl][Pt][Cl]	H1703	cell viability, MTT	4 h, together with: cimetidine 3 mmol/L	70 ± 23.1 µM
COc1cc(/C=C/C(O)=C/C(=O)/C=C/c2ccc(O)cc2)ccc1O	Hs68	cell growth or viability, MTT	48 h	> 50 µg/mL
COC(=O)CNC(=O)C[C@@H]1N=C(c2ccc(Cl)cc2)c2c(sc(C)c2C)-n2c(C)nnc21	acute leukaemia and medulloblastoma lines	cell growth	72 h	0.0099 to 0.359 µM
echistatin	U-87 MG	cell adhesion to fibronectin	2 h	0.0092 ± 0.0015 µM
CC(NC(=O)c1cc2ccccc2[nH]1)C12CC3CC(CC(C3)C1)C2 (stereo not shown)	KNS-42	cell growth or viability, resazurin	72 h	> 10 µM
CC[C@H](C)[C@@H]1NC(=O)[C@H](CCC(=O)O)NC(=O)[C@H](C)NC(=O)[C@H](CC(C)C)NC(=O)[C@H](CC(C)C)NC(=O)C2(CCCC=CCCCCCC[C@@](C)(C(=O)N[C@@H](CC(N)=O)C(=O)N[C@@H](CC(C)C)C(=O)N[C@@H](CO)C(N)=O)NC(=O)[C@H](CCCCN)NC1=O)CCCC=CCCC[C@](C)(NC(=O)[C@H](CCCNC(=N)N)NC(=O)[C@H](CC(N)=O)NC(=O)[C@H](CCC(=O)O)NC(=O)[C@@H]1CCCN1C(=O)[C@H](CC(=O)O)NC(=O)[C@H](CC(N)=O)NC(=O)[C@@H](N)CC(=O)O)C(=O)N[C@@H](C)C(=O)N[C@@H](CCCCN)C(=O)N[C@@H](CCCCN)C(=O)N2 (stereo partly shown)	HCT-116 expressing NanoLuc-HaloTag	intracellular peptide delivery, NanoBRET	24 h, 37 °C, 1% DMSO	0.0071 µM
Cc1n[nH]c(C)c1Cc1sc2c(c1C(=O)N1C[C@H](O)CO1)c(=O)n(C)c(=O)n2CC(C)C	KNRK cells	GHB uptake	1 min, pH 6.5, together with: [3H]GHB 10 µM	0.0068 µM
CCNC(=O)[C@H]1O[C@@H](n2cnc3c(N)ncnc32)[C@H](O)[C@@H]1O	HL-1, non-transfected	protection from cell death	4 h, together with: H2O2 750 µM	3.7 ± 1 µM
CN1CCN(C2Cc3ccccc3Sc3ccc(Cl)cc32)CC1 (stereo not shown)	HepG2	cell viability, ATP content	24 h	62.8 µM
N.N.[Cl][Pt][Cl]	BEAS-2B	–	–	5.7 ± 0.3 µM
COc1ccc(C[C@H]2NC(=O)/C=C/C[C@@H]([C@H](C)[C@@H](OC(=O)CNC(=O)CCc3cn(CCOCCOCCOCCOCC(=O)NCc4ccc(CN5C(=O)[C@H]6CC(=O)N[C@H](C(=O)O)CC(=O)NCC(=O)N[C@@H](CCCNC(=N)N)C(=O)NC[C@H]5C(=O)N6)cc4)nn3)[C@@H](Cl)c3ccccc3)OC(=O)[C@H](CC(C)C)OC(=O)C(C)(C)CNC2=O)cc1Cl	M21-L human melanoma (integrin αv-negative)	cell viability, MTT	2 h treatment plus 70 h	0.141 ± 0.0133 µM
N.N.[Cl][Pt][Cl]	K562	cell growth or viability, resazurin	–	5.77 µM

Substance	cell line	test	setting	IC50
Trastuzumab emtansine	MDA-MB-468	cell viability, CellTiter-Glo	5 d, concentration as DM1 content	0.0695 ± 0.005 µM
C=C(C)C1CC=C(COC(=O)CCC(=O)OC2OC3OC4(C)CCC5C(C)CCC(C2C)C35OO4)CC1 (stereo not shown)	SK-MEL-24	cell viability, MTT	24 h, together with: deferoxamine 20 µM, 1 h before	0.16 ± 0.04 µM
CCOC(=O)C[C@H](O)COC(=O)/C=C/CCl	RAW264.7	NO release, inhibitor	LPS-stimulated	4.5 µM
CC(=O)OC[C@H]1O[C@@H]([S-])[C@H](OC(C)=O)[C@@H](OC(C)=O)[C@@H]1OC(C)=O.CCP(CC)CC.[Au+]	HEK293T ERR reporter line	cell viability, qHTS	–	9.44 µM
COc1ccc2oc(C(=O)c3cc(OC)c(OC)c(OC)c3)c(N)c2c1	L1210	cell growth or viability	–	8.38 µM
COC(=O)[C@@]1(O)C[C@H]2O[C@]1(C)n1c3ccccc3c3c4c(c5c6ccccc6n2c5c31)C(=O)NC4	HeLa expressing Ub(G76V)-GFP	Ub(G76V)-GFP degradation, inhibitor, cycloheximide chase	–	10 ± 4 µM
COc1cc2c(Oc3ccc4[nH]c(C)cc4c3F)ccnc2cc1OCC1(N)CC1	MHCC97H	cell growth or viability, MTT	48 h	1.75 µM
CC(C)c1ccc2c(c1)CC[C@H]1[C@](C)(CN)CCC[C@]21C	UACC-903	cell growth or viability, MTS	24 h	1.78 µM
Nc1nc(Cl)c(-c2ccccc2)c(Cl)n1	mouse peritoneal cells	nitric oxide production, Griess	24 h, together with: LPS plus IFN-gamma	24.2 µM
C#CC[C@H](N)C(=O)N[C@@H](C)C(=O)N1CCC[C@H]1C(=O)N1CCC[C@H]1C(=O)NCC(=O)N[C@@H](CCCN)C(=O)N[C@@H](CCCNC(=N)N)C(=O)N[C@@H](CC(C)C)C(=O)N[C@@H](CCCNC(=N)N)C(=O)N[C@@H](CO)C(=O)NCC(=O)N[C@@H](CCCNC(=N)N)C(=O)N[C@@H](CO)C(=O)N[C@H](C(=O)NCC(=O)N[C@@H](C)C(=O)N1CCC[C@H]1C(=O)N[C@@H](CC(C)C)C(=O)N[C@H](C(=O)N[C@@H](CCCNC(=N)N)C(=O)NCC(=O)N[C@@H](CO)C(N)=O)[C@@H](C)O)[C@@H](C)O	A2780cisR	cell growth or viability, MTT	72 h, drug-resistant strain	> 200 µM
CC(N)C(O)CCCCCCCCCCCCCCC(=O)CCCCCCCC(O)C(C)N (stereo not shown)	MCF-12A	cell growth or viability, resazurin	96 h	20.8 µM
C#CCc1c(Cl)nc(N)nc1Cl	mouse peritoneal cells	nitric oxide production, Griess	24 h, together with: LPS plus IFN-gamma	9 µM
CC(NC(=O)c1cc2c(Cl)cc(Cl)cc2[nH]1)C12CC3CC(CC(C3)C1)C2 (stereo not shown)	KNS-42	cell growth or viability, resazurin	72 h	> 10 µM
CCCCCCCCCC(=O)N[C@@H](Cc1ccccc1)C(=O)N[C@H](C(=O)NCC(=O)N[C@H](C(=O)N[C@@H](CC(C)C)C(=O)N[C@H](C(=O)N1CCC[C@H]1C(=O)N[C@@H](CC(C)C)C(=O)N[C@@H](C)C(=O)N[C@@H](CC(C)C)C(=O)NCC(=O)N[C@@H](C)C(=O)N[C@@H](CC(C)C)C(=O)N[C@H](C(=O)N[C@@H](CCCCN)C(=O)N[C@@H](CC(C)C)C(=O)N[C@@H](Cc1ccccc1)C(=O)N[C@@H](CCCCN)C(N)=O)[C@@H](C)O)[C@@H](C)CC)[C@@H](C)O)[C@@H](C)CC	HCT-116	cell growth or viability, CCK-8	24 h	6.82 µM
COc1ccc(C[C@H]2NC(=O)/C=C/C[C@@H]([C@H](C)[C@@H](OC(=O)CN)[C@@H](Cl)c3ccccc3)OC(=O)[C@H](CC(C)C)OC(=O)C(C)(C)CNC2=O)cc1Cl	M21 human melanoma (integrin αvβ3-positive)	cell viability, MTT	2 h treatment plus 70 h	0.00075 ± 0.00011 µM
Cc1ccc2[nH]c(C(=O)NC(C)C34CC5CC(CC(C5)C3)C4)cc2c1 (stereo not shown)	KNS-42	cell growth or viability, resazurin	72 h	> 10 µM
N.N.[Cl][Pt][Cl]	NCI-H1975	cell growth or viability, MTT	72 h	9.77 µM
Oc1ccc2c3c1O[C@H]1c4[nH]c5c(c4C[C@@]4(O)[C@@H](C2)N(CC2CC2)CC[C@]314)C[C@@]1(O)[C@H]2Cc3ccc(O)c4c3[C@@]1(CCN2CC1CC1)[C@H]5O4	HEK293 expressing MOR	cAMP overshoot, inhibitor, HTRF cAMP	together with: morphine then naloxone	4.61 µM
Nc1cccc2c(N)cccc12	HepG2	mitochondrial membrane potential, high content imaging	5 h	inactive
CC[C@H](C)[C@H](N)C(=O)N[C@@H](CC(C)C)C(=O)N[C@@H](CCCNC(=N)N)C(=O)N[C@@H](Cc1c[nH]c2ccccc12)C(=O)N[C@@H](CO)C(=O)N[C@@H](CCCNC(=N)N)C(=O)N[C@@H](CCCCN)C(=O)N[C@@H](CC(C)C)C(=O)N1CCC[C@H]1C(=O)N[C@@H](CS)C(=O)N[C@H](C(=O)N[C@@H](CO)C(=O)O)C(C)C	SUP-T1	cell migration, inhibitor	–	0.48 µM
C[C@@H](Oc1cc(-c2cnn(C3CCNCC3)c2)cnc1N)c1c(Cl)ccc(F)c1Cl	Ba/F3 parental	cell proliferation	72 h, together with: IL-3	15.4 µM

For quick reference, copied from above:
Substance	cell line	test	setting	IC50
N.N.[Cl][Pt][Cl]	H1703	cell viability, MTT	4 h, together with: cimetidine 3 mmol/L	70 ± 23.1 µM
COc1cc(/C=C/C(O)=C/C(=O)/C=C/c2ccc(O)cc2)ccc1O	Hs68	cell growth or viability, MTT	48 h	> 50 µg/mL
COC(=O)CNC(=O)C[C@@H]1N=C(c2ccc(Cl)cc2)c2c(sc(C)c2C)-n2c(C)nnc21	acute leukaemia and medulloblastoma lines	cell growth	72 h	0.0099 to 0.359 µM
echistatin	U-87 MG	cell adhesion to fibronectin	2 h	0.0092 ± 0.0015 µM
